Assay results collected from several papers.
Each line is one published result; not all experiments were run side by side. ± marks the error that the study gave.

| Structure (SMILES) | assay | test system | conditions | scale | quantity | value |
| --- | --- | --- | --- | --- | --- | --- |
| NS(=O)(=O)NCCc1ccccc1F | protection from scPTZ seizures | mouse | together with: pentylenetetrazol 85 mg/kg s.c. | – | ED50 | 74 ± 3 mg/kg |
| CC/C=C\C/C=C\C/C=C\C/C=C\C/C=C\CCCCOC(CC)C(=O)O (stereo not shown) | – | APOE*3Leiden.CETP mice, high-fat/cholesterol diet | 112 mg/kg/day, 20 weeks | relative to: control | hepatocellular hypertrophy change | -82% |
| CCCCCCOC(=O)Cc1c(C)n(C(=O)c2ccc(Cl)cc2)c2ccc(OC)cc12 | hot plate test | BALB/c mice | 50 mg/kg, 60 min | – | latency of nociceptive response | 13.9 ± 1.32 s |
| O=C([O-])CN1CCN(CC(=O)[O-])CCN(CC(=O)NC[C@H]2CC[C@H](C(=O)N[C@H](Cc3cnc4ccccc4c3)C(=O)NCCCC[C@H](NC(=O)N[C@@H](CCC(=O)O)C(=O)O)C(=O)O)CC2)CCN(CC(=O)[O-])CC1.[64Cu+2] | gamma counting | prostate cancer patients, prostate cancer biopsy cores | dose not given, 24 h post-injection | – | median radioactivity | 134000 CPM |
| CSc1nn(-c2ccccc2)c(NC(=O)/C(C#N)=C(\Nc2ccc(F)cc2)Nc2c(C)n(C)n(-c3ccccc3)c2=O)c1C#N | immunohistochemistry | rat CCl4 liver fibrosis | 20 mg/kg/day, 6 weeks | – | α-SMA positive area | 14.5% |
| CCCC[C@H](NC(=O)[C@@H](NC(=O)[C@H](CC(=O)O)NC(=O)[C@H](CCC(N)=O)NC(=O)[C@H](CC(C)C)NC(=O)[C@H](CC(C)C)NC(=O)[C@H](CCCN)NC(=O)[C@H](CCCNC(=N)N)NC(=O)[C@H](C)NC(=O)[C@H](CO)NC(=O)[C@H](CC(C)C)NC(=O)[C@H](CCC(N)=O)NC(=O)[C@H](CC)NC(=O)[C@H](CC(C)C)NC(=O)[C@@H](NC(=O)[C@H](CCCN)NC(=O)[C@H](CCCNC(=N)N)NC(=O)[C@H](Cc1ccc(O)cc1)NC(=O)[C@H](CO)NC(=O)[C@H](CCC(N)=O)NC(=O)[C@@H](NC(=O)[C@H](Cc1ccccc1)NC(=O)[C@@H](NC(=O)[C@H](C)NC(=O)[C@H](CC(=O)O)NC(=O)[C@H](C)NC(=O)CCc1ccc(O)cc1)[C@@H](C)CC)[C@@H](C)O)C(C)C)[C@@H](C)CC)C(=O)N[C@@H](CC(=O)O)C(=O)NCCCCNC(=N)N | GH release | male rat, serum | subcutaneous, dose not given, 15 min | relative to: GHRH(1-29)NH2 | relative potency | 63.1 |
| Cc1nc(C)c(C=[N+]([O-])C(C)(C)C)nc1C | Western blot, measured: Nrf2 | mouse, MPTP model, substantia nigra nuclei | 30 mg/kg | – | protein level increase | 45.6% |
| CCCC[C@H](NC(=O)[C@@H](NC(=O)[C@H](CC(=O)O)NC(=O)[C@H](CCC(N)=O)NC(=O)[C@H](CC(C)C)NC(=O)[C@H](CC(C)C)NC(=O)[C@H](CCCN)NC(=O)[C@H](CCCNC(=N)N)NC(=O)[C@H](C)NC(=O)[C@H](CO)NC(=O)[C@H](CC(C)C)NC(=O)[C@H](CCC(N)=O)NC(=O)[C@H](CC)NC(=O)[C@H](CC(C)C)NC(=O)[C@@H](NC(=O)[C@H](CCCN)NC(=O)[C@H](CCCNC(=N)N)NC(=O)[C@H](Cc1ccc(O)cc1)NC(=O)[C@H](CO)NC(=O)[C@H](CCC(N)=O)NC(=O)[C@@H](NC(=O)[C@H](Cc1ccccc1)NC(=O)[C@@H](NC(=O)[C@H](C)NC(=O)[C@H](CC(=O)O)NC(=O)[C@@H](C)NC(=O)[C@H](Cc1ccc(O)cc1)NC)[C@@H](C)CC)[C@@H](C)O)C(C)C)[C@@H](C)CC)C(=O)N[C@@H](CC(=O)O)C(=O)NCCCCNC(=N)N | GH release | rat, male, serum | subcutaneous, 3 µg/kg, 15 min | relative to: reference GHRH agonist JI-38 | relative potency | 1.27 |
| NC(=O)C[C@H](N)C(=O)N1CCC[C@H]1C(=O)NCC(=O)NCC(=O)O | diketopiperazine formation, Arrhenius plot, ESI-MS | 1-propanol | 70, 80, 90 °C, 0.5% acetic acid | – | activation energy | 18.6 ± 0.478 kcal/mol |
| C=C(c1ccc(C(=O)O)c(F)c1)c1cc2c(cc1C)C(C)(C)C=CC2(C)C | RNA sequencing, measured: Lyve1 | rat, brain | dose not given, 24 h | relative to: vehicle | log2 fold change | -0.052 |

For quick reference, copied from above:
| Structure (SMILES) | assay | test system | conditions | scale | quantity | value |
| --- | --- | --- | --- | --- | --- | --- |
| NC(=O)C[C@H](N)C(=O)N1CCC[C@H]1C(=O)NCC(=O)NCC(=O)O | diketopiperazine formation, Arrhenius plot, ESI-MS | 1-propanol | 70, 80, 90 °C, 0.5% acetic acid | – | activation energy | 18.6 ± 0.478 kcal/mol |
